Results gathered from unrelated publications.
Lines come from different studies, so protocols differ.
Matrix: plasma
Route: oral

`COc1cccc(-c2ccc(NC(=O)C3=C(C(=O)O)CCC3)c(F)c2)c1` has an AUC(0-inf) of 53900 ng·h/mL (male human; 10 mg, single dose, fed, healthy volunteers).
With `O=C(c1nc2n(n1)[C@H](c1ccccc1)C[C@@H]2F)C1CC1` the AUC(0-inf) was 27800 ng·h/mL (human; 150 mg, single dose, fasted, healthy volunteers).
With `CCOc1ccc(Cc2cc([C@@H]3S[C@H](CO)[C@@H](O)[C@H](O)[C@H]3O)c(OC)cc2C)cc1` the AUC(0-inf) was 337 ng·h/mL (human; 1 mg, single dose, fasted, healthy volunteers).
For `CNC(=O)c1ccccc1Sc1ccc2c(/C=C/c3ccccn3)n[nH]c2c1`, the AUC(0-inf) was 181 ng·h/mL (human; 7 mg, single dose, fed).
For `CS(=O)(=O)n1cc2c(n1)CN([C@H]1CO[C@H](c3cc(F)ccc3F)[C@@H](N)C1)C2`, the AUC(0-inf) was 25.1 µM·h (male human; 25 mg, single dose, fasted).
The AUC(0-inf) of `CC(C)(Sc1ccncc1-c1ccc(C#N)c2ccccc12)C(=O)O` is reported as 252 ng·h/mL (male human; 15 mg, single dose, fasted).
The AUC(0-inf) of `Nc1ccc(-c2nc([C@H]3CCc4cc(-c5cc(Cl)ccc5-n5cnnn5)cc(=O)n43)c(F)[nH]2)c(F)n1` is reported as 948 ng·h/mL (human; 5 mg, single dose, fasted).
`C[C@@H]1CCC[C@H](n2cnc(-c3cc(Cl)ccc3-n3cc(Cl)nn3)cc2=O)c2cc(ccn2)-c2c(cnn2C(F)F)NC1=O` has an AUC(0-inf) of 21300 ng·h/mL (human; 500 mg, single dose, fasted, healthy volunteers).

A few entries again:
With `O=C(c1nc2n(n1)[C@H](c1ccccc1)C[C@@H]2F)C1CC1` the AUC(0-inf) was 27800 ng·h/mL (human; 150 mg, single dose, fasted, healthy volunteers).
